Published values collected from several papers.
Numbered parts are unrelated; each lists some results of a single study. Changes are numbered by the printed parent chain.

Series 1
Target: PABPC1L2, full length, GST fusion (mouse, UniProt A0ABA7IW68)
Method: RNAcompete
Molecule type: RNA
Sample: in vitro
Tested at: 20 nM
Notes: 7-mer, probes averaged, single round
Baseline: mean of 7-mers
Reading: higher = stronger binding
Construct (chain): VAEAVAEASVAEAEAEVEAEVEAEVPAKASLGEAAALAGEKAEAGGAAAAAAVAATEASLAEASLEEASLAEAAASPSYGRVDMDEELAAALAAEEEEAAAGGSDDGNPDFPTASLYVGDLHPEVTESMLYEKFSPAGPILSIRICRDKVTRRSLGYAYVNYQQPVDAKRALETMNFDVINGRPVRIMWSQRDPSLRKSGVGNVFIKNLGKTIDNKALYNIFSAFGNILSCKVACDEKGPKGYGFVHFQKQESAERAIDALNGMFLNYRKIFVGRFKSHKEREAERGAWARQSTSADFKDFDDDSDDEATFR
For `AUUGUUA`, the 7-mer Z-score was -0.228.
For `GACGUAG`, the 7-mer Z-score was -0.228.
`UAAGUCA` gave a 7-mer Z-score of -0.112.
For `UUUCGCC`, the 7-mer Z-score was -0.421.
`CAGGCUC` has a 7-mer Z-score of -0.139.
The 7-mer Z-score of `UCGGCGA` is reported as -0.103.
`CUUUGAA` has a 7-mer Z-score of -0.0881.
The 7-mer Z-score of `UGGGCAC` is reported as -0.0101.
`AUGCUAC` gave a 7-mer Z-score of -0.151.
With `GUACACA` the 7-mer Z-score was -0.206.
`GCUCUAA` gave a 7-mer Z-score of 0.153.
`UUAAGGA` gave a 7-mer Z-score of 0.124.

Series 2
Target: CCND1, cyclin fold, Cln2 fusion (human)
Method: yeast growth competition, sequencing
Sample: yeast
Notes: strong parent motif
Baseline: not given
Reading: higher = stronger binding
Starting sequence: RBL2 docking peptide (human); STTRRRLFVENDS; partner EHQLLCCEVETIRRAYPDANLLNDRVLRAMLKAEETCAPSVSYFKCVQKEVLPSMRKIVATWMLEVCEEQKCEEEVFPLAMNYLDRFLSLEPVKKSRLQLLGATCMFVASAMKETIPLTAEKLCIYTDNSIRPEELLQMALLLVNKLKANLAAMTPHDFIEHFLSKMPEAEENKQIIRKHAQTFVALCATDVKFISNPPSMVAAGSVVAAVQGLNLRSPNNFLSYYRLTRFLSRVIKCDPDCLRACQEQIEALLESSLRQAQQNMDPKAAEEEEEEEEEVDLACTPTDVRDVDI
`LTTRRRLFVENDS [S1L]`: “normalised enrichment score” 0.309.
`STTRRRLFVENDN [S13N]`: “normalised enrichment score” 0.257.
For `STQRRRLFVENDS [T3Q]`, “normalised enrichment score” read -0.376.
`STTRRRCFVENDS [L7C]`: “normalised enrichment score” -0.111.
Under “normalised enrichment score”, `STTLRRLFVENDS [R4L]` is recorded as -0.0954.
Under “normalised enrichment score”, `STTHRRLFVENDS [R4H]` is recorded as 1.08.

Series 3
Target: RNA binding protein fox-1 homolog 2, RRM domain, GST-SBP tag (RBFOX2, Homo sapiens, UniProt O43251-10, residues 100-194)
Method: RNA Bind-n-Seq
Molecule type: RNA
Sample: in vitro
Tested at: 365 nM
Notes: natural RNA segment, single round, ends assumed
Baseline: no-protein control
Reading: higher = stronger binding
Target sequence (chain): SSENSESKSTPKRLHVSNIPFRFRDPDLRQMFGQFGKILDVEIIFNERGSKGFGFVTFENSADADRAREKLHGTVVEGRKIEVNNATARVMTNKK
`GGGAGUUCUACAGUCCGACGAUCUCAGUGGAACUGCAACAUCUACUGGAUCAGCUCCAUCCUCAAGCACUUUGCCAGCAGCUUCUAGCCUUAAAACCCCAGGAACUUCUGCAAAUAUGAAUGGACCCAUUUCAUGGAAUUCUCGGGUGCCAA` — result for “RBNS enrichment (R)”: 0.31.
Under “RBNS enrichment (R)”, `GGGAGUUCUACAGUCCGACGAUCGCCAUUGCGGAGCUGCCCUCUUGAGUCUUUCUGUCCAUCCCAUUCUAUUCUGUACUGUGACUUUAGUUCAGGAAGUUUUGUUUUGUGUUUUAAAUAAAAGGAAAGAGCAAUGGAAUUCUCGGGUGCCAA` is recorded as 0.3.
`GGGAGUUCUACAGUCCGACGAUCUUCCUCCUGCCUCAGUCUCCCAAGUGCUACAAUGACGGGCCUUUGCCACUAUGCUUGGCUGGCCUUGCUCUUGCCACAAAAGCUCGUUGGAUGGAAAAAGCUGAAGCAAGUGGAAUUCUCGGGUGCCAA` — result for “RBNS enrichment (R)”: 0.474.
Under “RBNS enrichment (R)”, `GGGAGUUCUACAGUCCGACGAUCUUUAAUCAAAAUUCAUAGUUGGAUCAGCCAUUGCCUUGUACAGGUUUAUUUUUUCCCCACAGACGCACACACCAACACAUUUAUAUUCAUUGCUUCCUCCCACUUUGUGCUGGAAUUCUCGGGUGCCAA` is recorded as 2.42.
`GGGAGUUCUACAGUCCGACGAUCCUCUCUCUCUCUCUCUCAUUAUGCCCUUGAACUGUAUUUUAGUGGUAAUGUGGGAUAGUAAUCUCAGUGAAAAGCAAACAGCGCAGGGUCUUGGAAGGGUGGUCUUUAUAUGGAAUUCUCGGGUGCCAA`: “RBNS enrichment (R)” 0.468.
Under “RBNS enrichment (R)”, `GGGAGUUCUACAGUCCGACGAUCGUUUUUUGAAACACCUCUCACUGCAUCUGAUAUCAGGAAACAAAGAUGAAGGACUUGGCGAACAGAAAGCCCUUCGAGAUCUUGUGUACCCCACCUUCCCACACUGUGAGUGGAAUUCUCGGGUGCCAA` is recorded as 2.14.
`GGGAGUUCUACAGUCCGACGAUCCUAGAAUGCUCUGUAUACUUUAUAUUAAAAAAUGCUUUGCAUUUCUUCCAGUGCAAUGAAAUUCAUAUGGUGUCCCACCUUAUUUAAUGAUGGUACAAUUUAAAAUCUUAUGGAAUUCUCGGGUGCCAA` — result for “RBNS enrichment (R)”: 0.549.
Under “RBNS enrichment (R)”, `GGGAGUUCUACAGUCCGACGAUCUUUUCUGAACCAGUUCUUUUUCUUGGGGUAGAGCGUGAAAUCCAGACCUGUUUUUGAAAGGACAGCACAGGAGGAGAAAAGUGACUGGGACGAUGCUUCCUCUCAUCCAAUGGAAUUCUCGGGUGCCAA` is recorded as 0.703.

Mixed results
With `PhoQ, residues 284 288 289 292 302 303 HSYLQF` the fold induction was 54.5 (PhoP, residues 12 14 15 18 19 LYFRQ (Escherichia coli, UniProt P23836); Sort-seq, refers to: YFP reporter; E. coli; PhoQ-PhoP variant library, with: 10 µM Mg2+; baseline: high Mg2+ state, higher = stronger signaling).

A few entries again (series 3):
`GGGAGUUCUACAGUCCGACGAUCUCAGUGGAACUGCAACAUCUACUGGAUCAGCUCCAUCCUCAAGCACUUUGCCAGCAGCUUCUAGCCUUAAAACCCCAGGAACUUCUGCAAAUAUGAAUGGACCCAUUUCAUGGAAUUCUCGGGUGCCAA` — result for “RBNS enrichment (R)”: 0.31.
Under “RBNS enrichment (R)”, `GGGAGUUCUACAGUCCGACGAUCGCCAUUGCGGAGCUGCCCUCUUGAGUCUUUCUGUCCAUCCCAUUCUAUUCUGUACUGUGACUUUAGUUCAGGAAGUUUUGUUUUGUGUUUUAAAUAAAAGGAAAGAGCAAUGGAAUUCUCGGGUGCCAA` is recorded as 0.3.
`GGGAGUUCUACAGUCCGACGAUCUUCCUCCUGCCUCAGUCUCCCAAGUGCUACAAUGACGGGCCUUUGCCACUAUGCUUGGCUGGCCUUGCUCUUGCCACAAAAGCUCGUUGGAUGGAAAAAGCUGAAGCAAGUGGAAUUCUCGGGUGCCAA` — result for “RBNS enrichment (R)”: 0.474.
Under “RBNS enrichment (R)”, `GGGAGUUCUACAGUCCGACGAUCUUUAAUCAAAAUUCAUAGUUGGAUCAGCCAUUGCCUUGUACAGGUUUAUUUUUUCCCCACAGACGCACACACCAACACAUUUAUAUUCAUUGCUUCCUCCCACUUUGUGCUGGAAUUCUCGGGUGCCAA` is recorded as 2.42.
